# Measurements collected from several papers.
# Each numbered part is a random draw from the data of one study; scales do not carry over between parts.
# Sequence of UniProt P35372 (whole entry, looked up): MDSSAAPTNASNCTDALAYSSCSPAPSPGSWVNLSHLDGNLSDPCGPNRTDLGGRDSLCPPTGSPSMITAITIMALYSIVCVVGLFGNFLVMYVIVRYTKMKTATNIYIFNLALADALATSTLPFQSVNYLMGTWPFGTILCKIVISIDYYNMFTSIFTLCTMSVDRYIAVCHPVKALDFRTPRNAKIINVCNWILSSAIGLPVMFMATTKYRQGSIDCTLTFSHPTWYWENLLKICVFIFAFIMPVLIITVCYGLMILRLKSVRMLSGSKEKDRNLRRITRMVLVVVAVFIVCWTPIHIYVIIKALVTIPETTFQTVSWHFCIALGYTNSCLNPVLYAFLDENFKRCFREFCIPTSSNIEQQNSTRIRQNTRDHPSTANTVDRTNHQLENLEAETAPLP
# Sequence of UniProt Q01959 (whole entry, looked up): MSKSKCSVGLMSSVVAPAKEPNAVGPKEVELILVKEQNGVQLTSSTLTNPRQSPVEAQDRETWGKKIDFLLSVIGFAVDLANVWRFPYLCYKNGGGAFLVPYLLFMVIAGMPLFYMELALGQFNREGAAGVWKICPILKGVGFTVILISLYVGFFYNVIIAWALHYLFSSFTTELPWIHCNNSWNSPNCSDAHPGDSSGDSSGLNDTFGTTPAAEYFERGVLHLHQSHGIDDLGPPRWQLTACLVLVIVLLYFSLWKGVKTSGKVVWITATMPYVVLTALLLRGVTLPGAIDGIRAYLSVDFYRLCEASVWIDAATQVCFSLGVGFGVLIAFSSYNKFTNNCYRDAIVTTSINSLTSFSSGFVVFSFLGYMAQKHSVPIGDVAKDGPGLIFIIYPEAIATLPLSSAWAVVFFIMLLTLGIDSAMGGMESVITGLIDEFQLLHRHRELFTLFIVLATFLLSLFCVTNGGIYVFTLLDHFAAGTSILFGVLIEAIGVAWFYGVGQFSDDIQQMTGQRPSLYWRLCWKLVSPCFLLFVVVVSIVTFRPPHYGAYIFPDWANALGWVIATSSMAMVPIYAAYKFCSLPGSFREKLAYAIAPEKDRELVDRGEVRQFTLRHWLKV
# Sequence of UniProt P23975 (whole entry, looked up): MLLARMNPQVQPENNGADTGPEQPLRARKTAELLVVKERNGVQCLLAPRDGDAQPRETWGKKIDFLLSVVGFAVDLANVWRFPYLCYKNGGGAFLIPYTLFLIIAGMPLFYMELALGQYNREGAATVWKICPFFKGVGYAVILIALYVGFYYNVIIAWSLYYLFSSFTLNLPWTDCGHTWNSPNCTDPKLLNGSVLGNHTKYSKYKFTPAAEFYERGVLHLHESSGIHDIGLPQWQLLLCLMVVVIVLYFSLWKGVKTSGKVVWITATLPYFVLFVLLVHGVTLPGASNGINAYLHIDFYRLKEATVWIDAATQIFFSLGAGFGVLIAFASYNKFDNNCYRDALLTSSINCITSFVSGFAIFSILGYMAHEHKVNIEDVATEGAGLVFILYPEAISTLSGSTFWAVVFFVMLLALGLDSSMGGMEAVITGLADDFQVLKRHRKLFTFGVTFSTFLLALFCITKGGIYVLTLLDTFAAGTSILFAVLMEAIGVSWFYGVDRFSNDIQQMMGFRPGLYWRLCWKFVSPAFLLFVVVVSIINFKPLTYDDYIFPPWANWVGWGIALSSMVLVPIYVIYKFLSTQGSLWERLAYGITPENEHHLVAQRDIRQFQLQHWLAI
# Sequence of UniProt Q96SW2 (whole entry, looked up): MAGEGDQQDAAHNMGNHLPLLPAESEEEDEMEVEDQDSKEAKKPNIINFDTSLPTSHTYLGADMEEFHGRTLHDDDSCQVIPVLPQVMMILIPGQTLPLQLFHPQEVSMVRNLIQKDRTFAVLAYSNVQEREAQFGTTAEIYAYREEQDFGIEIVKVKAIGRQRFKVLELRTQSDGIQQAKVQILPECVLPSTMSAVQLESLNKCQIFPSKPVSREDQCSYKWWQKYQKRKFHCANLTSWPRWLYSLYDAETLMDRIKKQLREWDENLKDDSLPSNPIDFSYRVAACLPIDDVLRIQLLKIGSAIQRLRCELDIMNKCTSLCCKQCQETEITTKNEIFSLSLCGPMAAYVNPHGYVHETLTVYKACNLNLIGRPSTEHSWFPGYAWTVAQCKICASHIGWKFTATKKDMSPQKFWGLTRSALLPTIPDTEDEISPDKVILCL
# Sequence of UniProt P31645 (whole entry, looked up): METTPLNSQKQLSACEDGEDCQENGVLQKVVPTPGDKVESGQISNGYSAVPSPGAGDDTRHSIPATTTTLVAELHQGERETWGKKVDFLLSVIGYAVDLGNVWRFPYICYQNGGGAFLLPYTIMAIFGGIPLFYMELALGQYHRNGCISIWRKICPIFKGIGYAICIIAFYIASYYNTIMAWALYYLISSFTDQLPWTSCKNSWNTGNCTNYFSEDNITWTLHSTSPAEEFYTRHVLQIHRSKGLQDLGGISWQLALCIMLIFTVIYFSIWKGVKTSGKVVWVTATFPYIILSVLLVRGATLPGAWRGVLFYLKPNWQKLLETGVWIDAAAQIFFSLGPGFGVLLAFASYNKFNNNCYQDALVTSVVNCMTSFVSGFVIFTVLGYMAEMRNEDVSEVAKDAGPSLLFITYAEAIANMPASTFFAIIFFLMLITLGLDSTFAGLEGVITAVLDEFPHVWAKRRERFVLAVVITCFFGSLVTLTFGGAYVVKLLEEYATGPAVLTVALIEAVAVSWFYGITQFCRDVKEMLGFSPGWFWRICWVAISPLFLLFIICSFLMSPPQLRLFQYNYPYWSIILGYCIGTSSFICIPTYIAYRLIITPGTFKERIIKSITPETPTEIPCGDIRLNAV
# Sequence of UniProt Q9UKS7 (whole entry, looked up): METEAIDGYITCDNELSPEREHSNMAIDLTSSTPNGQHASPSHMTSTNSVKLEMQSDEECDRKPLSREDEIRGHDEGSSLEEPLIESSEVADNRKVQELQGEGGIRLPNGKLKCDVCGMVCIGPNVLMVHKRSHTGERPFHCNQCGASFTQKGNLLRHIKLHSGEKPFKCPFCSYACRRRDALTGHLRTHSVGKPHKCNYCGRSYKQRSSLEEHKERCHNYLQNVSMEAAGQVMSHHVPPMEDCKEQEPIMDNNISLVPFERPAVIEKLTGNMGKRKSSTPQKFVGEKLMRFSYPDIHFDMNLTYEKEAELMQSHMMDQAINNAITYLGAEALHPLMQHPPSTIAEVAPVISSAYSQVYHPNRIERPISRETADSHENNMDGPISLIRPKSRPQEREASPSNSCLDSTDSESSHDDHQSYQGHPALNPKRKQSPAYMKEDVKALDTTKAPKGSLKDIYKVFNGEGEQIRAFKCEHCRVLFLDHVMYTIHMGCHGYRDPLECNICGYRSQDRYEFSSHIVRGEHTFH
# Sequence of UniProt P41143 (whole entry, looked up): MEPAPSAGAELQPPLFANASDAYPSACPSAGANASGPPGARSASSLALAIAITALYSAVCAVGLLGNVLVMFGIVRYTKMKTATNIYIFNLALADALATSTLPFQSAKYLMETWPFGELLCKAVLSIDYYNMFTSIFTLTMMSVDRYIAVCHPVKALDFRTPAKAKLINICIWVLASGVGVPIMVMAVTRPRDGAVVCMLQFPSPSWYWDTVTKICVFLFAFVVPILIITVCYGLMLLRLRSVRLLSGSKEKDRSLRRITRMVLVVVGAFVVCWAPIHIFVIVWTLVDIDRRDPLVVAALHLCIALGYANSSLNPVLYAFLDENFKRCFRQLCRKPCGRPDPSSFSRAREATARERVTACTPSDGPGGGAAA
# Sequence of UniProt P08908 (whole entry, looked up): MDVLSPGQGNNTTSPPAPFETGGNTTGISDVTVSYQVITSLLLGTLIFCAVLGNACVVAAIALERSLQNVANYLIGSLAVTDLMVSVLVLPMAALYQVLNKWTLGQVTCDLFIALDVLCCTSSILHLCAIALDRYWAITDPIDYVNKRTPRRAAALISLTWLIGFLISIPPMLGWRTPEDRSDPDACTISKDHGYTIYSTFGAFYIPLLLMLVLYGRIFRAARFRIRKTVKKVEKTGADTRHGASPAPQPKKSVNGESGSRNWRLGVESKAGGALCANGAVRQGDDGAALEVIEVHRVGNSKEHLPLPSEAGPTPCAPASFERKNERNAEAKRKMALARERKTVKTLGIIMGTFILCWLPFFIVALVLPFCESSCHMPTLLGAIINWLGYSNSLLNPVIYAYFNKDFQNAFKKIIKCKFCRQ
# Sequence of UniProt P21918 (whole entry, looked up): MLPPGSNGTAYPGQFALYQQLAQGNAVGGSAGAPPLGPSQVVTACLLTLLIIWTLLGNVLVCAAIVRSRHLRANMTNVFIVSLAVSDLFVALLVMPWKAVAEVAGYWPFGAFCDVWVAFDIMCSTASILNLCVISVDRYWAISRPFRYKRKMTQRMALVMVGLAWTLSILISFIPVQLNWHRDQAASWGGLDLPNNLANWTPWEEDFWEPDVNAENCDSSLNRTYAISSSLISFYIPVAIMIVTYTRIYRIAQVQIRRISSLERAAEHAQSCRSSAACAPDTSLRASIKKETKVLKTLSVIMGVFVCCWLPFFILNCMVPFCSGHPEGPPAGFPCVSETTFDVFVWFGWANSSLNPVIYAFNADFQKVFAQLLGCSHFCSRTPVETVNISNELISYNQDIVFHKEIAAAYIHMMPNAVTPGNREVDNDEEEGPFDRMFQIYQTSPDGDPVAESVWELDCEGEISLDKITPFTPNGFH

# Sample 1
# Cell line: mouse MPNST tumor cells
# Technique: high-content immunofluorescence imaging
# Measured: nuclear SOX9
# Concentration: 10 µM
# Time: 12 h
# Setting: mean of 2 replicates
# Reference: DMSO control
# Direction: higher = more nuclear SOX9
Structure (SMILES),nuclear SOX9 intensity
Cc1cc(SCc2sc(-c3ccc(C(F)(F)F)c(F)c3)nc2C)ccc1OCC(=O)O,90.4 % of DMSO
CN1C2C=C(c3sccc3Br)CC1CC2 (stereo not drawn),97.9 % of DMSO
CC(=O)N1N=C(c2ccc(N)cc2)c2cc3c(cc2C[C@H]1C)OCO3,101 % of DMSO
C=CCN1CC[C@]23c4c5ccc(O)c4O[C@H]2C(=O)CC[C@@]3(O)[C@H]1C5,102 % of DMSO
CCNC1=Nc2ccc(Cl)cc2C(C)(c2ccccc2)O1 (stereo not drawn),101 % of DMSO

# Sample 2
# SMILES: N#CN1CC[C@H](C(=O)Nc2nc3c(s2)CN(C(=O)CN=[N+]=[N-])CC3)C1
# Concentration: 10 µM
target,test,inhibition [%]
"HTR1A (Homo sapiens, UniProt P08908)",ligand displacement,7.61
"SLC6A4 (Homo sapiens, UniProt P31645)","binding, radioligand binding",2.49
"OPRM1 (Homo sapiens, UniProt P35372)",ligand displacement,12.6
"SLC6A3 (Homo sapiens, UniProt Q01959)","binding, radioligand binding",-2.33
"DRD5 (Homo sapiens, UniProt P21918)",ligand displacement,7.55
"SLC6A2 (Homo sapiens, UniProt P23975)","binding, radioligand binding",2.61
"OPRD1 (Homo sapiens, UniProt P41143)",ligand displacement,8.43

# Further values, each from its own experiment
Structure (SMILES),target or system,test,system,conditions,measurement,value
CC(=O)O[C@@H]1C[C@@]2(C)[C@H](c3ccoc3)C[C@H]3O[C@]32[C@]2(C)C(=O)C(O)=C3C(C)(C)C(=O)C=C[C@]3(C)C12 (stereo partly drawn),,,"human, microsomes or S9","2 µM, 0.5 h",remaining compound,65.1%
O=C1CCC(N2Cc3c(ccc4c3OCC43CCN(Cc4ccccc4)C3)C2=O)C(=O)N1 (stereo not drawn),"CRBN/Zinc finger protein Helios (Homo sapiens, UniProt Q96SW2+Q9UKS7)","degrader, HiBiT",HEK293,13.72 nM,protein remaining,86.8%
Brc1cnc2n[se]nc2c1,,,"human, microsomes or S9","2 µM, 0.5 h",remaining compound,131%

# A few entries again (sample 1):
Structure (SMILES),nuclear SOX9 intensity
Cc1cc(SCc2sc(-c3ccc(C(F)(F)F)c(F)c3)nc2C)ccc1OCC(=O)O,90.4 % of DMSO
CN1C2C=C(c3sccc3Br)CC1CC2 (stereo not drawn),97.9 % of DMSO
